# Results collected from several papers.
# Each line is one published result; not all experiments were run side by side. Several values in a cell are separate wells, animals, samples, runs or records. ± marks the error that the study gave.
# Cell line: HL-60
Compound,assay,setting,IC50
COc1c(O)cc2oc3cc4c(c(O)c3c(=O)c2c1CC=C(C)C)CC(O)O4 (centres unmarked),cell growth or viability,48 h,15 µM
CCCCN(CCCC)C(=S)SC[C@@H]1C(=O)O[C@H]2[C@H]1CC/C(C)=C/CC[C@@]1(C)O[C@@H]21,"cell growth or viability, MTT",72 h,10.6 µM
O=C1c2ccc(O)cc2OC1(O)Cc1ccc(O)c(O)c1 (centres unmarked),"cell growth or viability, MTT",72 h,42.5 µM
Cc1cc(C=O)cc(C)c1Oc1cc(Nc2ccc(C#N)cc2)nc2cnccc12,,48 h,8.9 ± 2.1 µM
COc1c(O)cc2oc3c(Br)c(O)c(CC=C(C)C)c(O)c3c(=O)c2c1CC=C(C)C,cell growth or viability,48 h,> 40 µM
CC1=C(Cn2c3ccc(Br)c(=O)c-3nc3ccccc32)CCC(C)(C)C1,"cell growth or viability, CCK-8",72 h,0.27 µM
C/C1=C\CC[C@@]2(C)O[C@H]2[C@H]2OC(=O)[C@@H](CSC(=S)N3CCN(C)CC3)[C@@H]2CC1,"cell growth or viability, MTT",72 h,4.4 µM
[Ru+2].c1ccc(-c2cccc(-c3ccccn3)n2)nc1.c1ccc2nc(-c3ccc4ccccc4n3)ccc2c1.c1cnccn1,cell growth or viability,dark,~30 µM and 34.6 µM
O=C1c2ccc3c4cccc5cccc(c6ccc(c2c36)C(=O)N1CCN1CCCCC1)c54,"cell growth or viability, SRB",72 h,43.4 µM
CC#N.[Ru+2].c1ccc(-c2cccc(-c3ccccn3)n2)nc1.c1ccc(-c2ccccn2)nc1,cell growth or viability,dark,> 100 µM
COc1c(O)cc2oc3cc4c(c(O)c3c(=O)c2c1CC=C(C)C)C=CC(C)(C)O4,cell growth or viability,48 h,13.7 µM
CC(C)=CCn1c2ccc(Br)c(=O)c-2nc2ccccc21,"cell growth or viability, CCK-8",72 h,0.67 µM
COc1c(OCc2ccccc2)cc2oc3cc(OCc4ccccc4)c(CC=C(C)C)c(O)c3c(=O)c2c1CC=C(C)C,cell growth or viability,48 h,5.96 µM
CSC(=S)NCc1cccnc1,"cell growth or viability, MTT",72 h,5.7 µM
O=C(O)c1ccc(-c2nc(-c3cccc(C(F)(F)F)c3)cs2)cc1,"cell growth or viability, ATP luminescence",72 h,0.71 µM
COc1cccc2c(=O)c3c(NCCCCCCC(=O)Nc4ccccc4N)ccc([N+](=O)[O-])c3[nH]c12,"cell growth or viability, MTT",72 h,1.46 µM
C/C1=C\CC[C@@]2(C)O[C@H]2[C@H]2OC(=O)[C@@H](CSC(=S)N3CCN(CCO)CC3)[C@@H]2CC1,"cell growth or viability, MTT",72 h,5.5 µM
COc1cccc2c(=O)c3c(NCCCCCC(=O)Nc4ccccc4N)ccc([N+](=O)[O-])c3[nH]c12,"cell growth or viability, MTT",72 h,0.62 µM
CC(C)CCc1c(O)cc2oc3cc(O)c(O)c(CCC(C)C)c3c(=O)c2c1O,cell growth or viability,48 h,13.7 µM
CC(C)=CCn1c2cccc(=O)c-2nc2ccccc21,"cell growth or viability, CCK-8",72 h,2.59 µM
C/C1=C\CC[C@@]2(C)O[C@H]2[C@H]2OC(=O)[C@@H](CSC(=S)N(C)Cc3cccnc3)[C@@H]2CC1,"cell growth or viability, MTT",72 h,20.5 µM
Cc1cc(C#N)cc(C)c1Oc1cc(Nc2ccc(C#N)cn2)nc2cnccc12,,48 h,> 127 µM
C/C1=C\CC[C@@]2(C)O[C@H]2[C@H]2OC(=O)[C@@H](CSC(=S)N3CCCC3)[C@@H]2CC1,"cell growth or viability, MTT",72 h,7.7 µM
COc1c(O)cc2oc3c(Br)c(O)c(CCC(C)C)c(O)c3c(=O)c2c1CCC(C)C,cell growth or viability,48 h,14.6 µM
Cc1cc(C=O)cc(C)c1Oc1cc(Nc2ccc(C#N)cc2)nc2ccncc12,,48 h,18.2 ± 3.4 µM
CCN(CC)CCN1C(=O)c2ccc3c4cccc5cccc(c6ccc(c2c36)C1=O)c54,"cell growth or viability, SRB",72 h,5.5 µM
CNC(=S)SC[C@@H]1C(=O)O[C@H]2[C@H]1CC/C(C)=C/CC[C@@]1(C)O[C@@H]21,"cell growth or viability, MTT",72 h,13.4 µM
CCN(CC)CCN1C(=O)c2ccc3c4cccc5c(N6CCNCC6)ccc(c6ccc(c2c36)C1=O)c54,"cell growth or viability, SRB",72 h,4.8 µM
S=C(S)NCc1cccnc1,"cell growth or viability, MTT",72 h,4.1 µM
COc1c(O)cc2oc3cc4c(c(O)c3c(=O)c2c1CCC(C)(C)O)CCC(C)(C)O4,cell growth or viability,48 h,> 40 µM
Cc1cc(C=O)cc(C)c1Oc1cc(Nc2ccc(C#N)cn2)nc2cnccc12,,48 h,> 126 µM
COc1c(OC(C)=O)cc2oc3cc(OC(C)=O)c(CC=C(C)C)c(O)c3c(=O)c2c1CC=C(C)C,cell growth or viability,48 h,11.9 µM
COc1ccc(CCCN[C@@H]2CCC[C@H]2CN[C@@H]2CCC[C@H]2CNCCCCN[C@H]2CCC[C@@H]2CN)cc1,"cell growth or viability, resazurin",96 h,49 µM
Cc1cc(C#N)cc(C)c1Oc1cc(Nc2ccc(C#N)cc2)nc2cnccc12,,48 h,> 128 µM
O=C(NCC1(c2nc(-c3ccccc3)cs2)CCOCC1)c1cccc(-c2noc(C(F)(F)F)n2)c1,"cell growth or viability, CCK-8",5 days,> 10 µM

# Excerpt of the above:
Compound,assay,setting,IC50
CC#N.[Ru+2].c1ccc(-c2cccc(-c3ccccn3)n2)nc1.c1ccc(-c2ccccn2)nc1,cell growth or viability,dark,> 100 µM
COc1c(O)cc2oc3cc4c(c(O)c3c(=O)c2c1CC=C(C)C)C=CC(C)(C)O4,cell growth or viability,48 h,13.7 µM
CC(C)=CCn1c2ccc(Br)c(=O)c-2nc2ccccc21,"cell growth or viability, CCK-8",72 h,0.67 µM
COc1c(OCc2ccccc2)cc2oc3cc(OCc4ccccc4)c(CC=C(C)C)c(O)c3c(=O)c2c1CC=C(C)C,cell growth or viability,48 h,5.96 µM
